Experimental data gathered from unrelated publications.
Values joined by “and” are separate records of one study, mostly repeats; a detail may differ. ± gives the spread as reported. Converted amounts (≈) assume the structure as drawn.

CCCCCC1=C(NCC)C(=O)C(C/C=C(\C)CCC=C(C)C)=C(O)C1=O
normalised enrichment score (RNA-seq, measured: Stat1 regulon; mouse, striatum; dose not given; direction not given): 1.91

COc1ccccc1-c1n[nH]c2nc(N[C@H]3CC[C@H](NS(=O)(=O)CC(C)C)CC3)ncc12
relative abundance (bead binding, competition bead pull-down, measured: LINJ.30.0990; Leishmania donovani extract; 10 µM; baseline: vehicle): 1.05

CN1C(=O)C(C2C3=C(CC(C)(C)CC3=O)Oc3ccc(Cl)cc32)C(=O)N(C)C1=O (stereo not drawn)
IC20 (3T3-L1; cell growth or viability, MTT; 72 h): 102 µg/mL (≈ 245 µM)

O=C(O)c1ccc(-c2nc(-c3ccccc3Cl)c3sccn23)cc1
CD61-positive cells (HEL; flow cytometry; 0.01 mM): 76%

N=C(N)NCCC[C@@H]1NC(=O)[C@H](CCCCNC(=O)CCC(NC(=S)Nc2ccc(CC3CN(CC(=O)O)CCN(CC(=O)O)CCN(CC(=O)O)CCN3CC(=O)O)cc2)C(=O)NCCCC[C@@H]2NC(=O)[C@@H](Cc3ccc(O)cc3)NC(=O)[C@H](CC(=O)O)NC(=O)CNC(=O)[C@H](CCCNC(=N)N)NC2=O)NC(=O)[C@@H](Cc2ccc(O)cc2)NC(=O)[C@H](CC(=O)O)NC(=O)CNC1=O (stereo partly drawn) [scandium-44 labelled]
tissue uptake (PET imaging ROI; female athymic nude mice, U-87 MG xenograft, liver; intravenous, 4 h, added: cRGD 50 mg/kg blocking): 0.05 ± 0.01 %ID/g

O=C(C[Se]C(=O)c1ccccc1)Nc1cccc(C(F)(F)F)c1
mean growth percent (NCI60 non-small-cell lung subpanel; cell growth; 10 µM, 48 h, one-dose): -65.9%

CN1C(=O)C(C2C3=C(CCCC3=O)Oc3ccc(Br)cc32)C(=O)N(C)C1=O (stereo not drawn)
IC50 (3T3-L1; cell growth or viability, MTT; 72 h): > 100 µg/mL

Cc1ccc(N2CC3CC(C2)N3C)cc1C(=O)NC1(c2ccc3c4c(cccc24)C(=O)N3C)CC1
inhibition (Mink-PLpro; enzyme activity, inhibitor; 100 µM): 99.1% and 102%

Cc1ccc2c(n1)c(-c1cccc(S(C)(=O)=O)c1)c(C)n2C/C(F)=C/CN
inhibition (L-type calcium channel, rat, Benzothiazepine site; radioligand binding, Eurofins SafetyScreen; 10 µM): 52%

CCN(CC)C(=O)[C@@H]1C=C2c3cccc4c3c(cn4C(=O)c3cccs3)C[C@H]2N(C)C1
ED50 (head-twitch response, magnetometer detection; mouse C57BL/6J male; intraperitoneal): 1.53 µmol/kg

O=C(C[Se]C(=O)c1ccco1)Nc1cccc(C(F)(F)F)c1
mean growth percent (NCI60 prostate subpanel (PC-3, DU-145); cell growth; 10 µM, 48 h, one-dose): -13%

[2H]C([2H])([2H])C1(C([2H])([2H])[2H])NC(=O)N(c2ccc(F)c(C(F)(F)F)c2)C1=O
worm burden reduction (Schistosoma mansoni; adult stage, infected mice; oral, 25 mg/kg; baseline: untreated infected): 100%

CC(C)(C)C(=O)OCOP(=O)(OCOC(=O)C(C)(C)C)C1CCCN(O)C1=O (stereo not drawn)
TGI (OVCAR-8): 8.91 µM

CCN(CC)C(=O)[C@@H]1C=C2c3cccc4c3c(cn4C(=O)c3ccco3)C[C@H]2N(C)C1
head-twitch response count (magnetometer; C57BL/6J mouse, male; intraperitoneal, 0.0625 mg/kg, 30 min session): 6

CC(C)CC(C(=O)N1CC2(CC1C#N)C(=O)Nc1ccccc12)N(C)C(=O)c1cc2c(F)cc(F)c(F)c2[nH]1 (stereo not drawn)
inhibition (Human coronavirus 229E; cytopathic effect; MRC5; 36.82 nM): 104%

COc1ccccc1-c1n[nH]c2nc(NC3CCN(C(=O)Cc4ccc(F)cc4F)CC3)ncc12
relative abundance (bead binding, competition bead pull-down, measured: LINJ.35.3900; Leishmania donovani axenic amastigote extract; 10 µM; baseline: vehicle): 0.84

Cc1cc(C(=O)Nc2nc3cccc(C)c3n2[C@H]2CCCCN(C(=O)/C=C/CN(C)C)C2)ccn1
survival (Trypanosoma brucei; STIB795, mouse acute HAT model; oral, 25 mg/kg once daily for 4 days, day 17; baseline: mice): 66.7%

Cc1cc(Oc2nc(N3CC[C@@H](c4ccncc4)C3)ncc2F)[nH]n1
normalised growth (Mycobacterium tuberculosis; OD; H37Rv PurF CRISPRi knockdown; 4e-06 µM, added: anhydrotetracycline low): 100% and 99%

Cc1ccc(NS(=O)(=O)c2c(C(=O)N3CCCCCC3)c(C)n(C)c2C)c(Cl)c1
infection (Human alphaherpesvirus 1; viral infection; HaCaT; 11.11 µM, 36 h; baseline: untreated): 101% and 123% and 103%

Nc1ncc(-c2cc(-c3cnn(CC(F)(F)F)c3)ncc2F)nc1C(=O)NC1CNCC(F)C1 (stereo not drawn)
remaining binding (ABL1(Q252H)-nonphosphorylated; KINOMEscan competition binding; 1 µM; baseline: DMSO control): 94%

O=C1NC2(CC2)COc2ncc(F)cc2[C@H]2COCCN2c2ccn3ncc1c3n2
organ-to-body weight ratio (Sprague-Dawley rat, female, ovaries; oral, 2.5 mg/kg/day, 4 weeks, end of treatment): 0.033 ± 0.004%
